Measurements from different studies.
Numbered parts are unrelated; each lists some results of a single study. Substitutions count along the parent as printed.

Study 1 — target: CCND3, cyclin fold, Cln2 fusion (human); technique: yeast growth competition, sequencing; sample: yeast; notes: weak parent motif; relative to: not given; direction: higher = stronger binding
Parent: CDKN1A docking peptide (human); SKACRRLFGPVDS; partner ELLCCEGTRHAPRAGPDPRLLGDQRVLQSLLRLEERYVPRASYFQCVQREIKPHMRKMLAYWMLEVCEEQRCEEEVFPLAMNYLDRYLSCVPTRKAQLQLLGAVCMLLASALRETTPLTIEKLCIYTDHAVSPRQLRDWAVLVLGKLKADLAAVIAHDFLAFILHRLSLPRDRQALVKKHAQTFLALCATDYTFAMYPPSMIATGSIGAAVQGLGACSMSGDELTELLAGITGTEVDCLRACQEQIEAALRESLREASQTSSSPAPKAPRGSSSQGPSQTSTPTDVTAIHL
Change	normalised enrichment score
D12L	0.0599
A3G	0.0305
F8V	0.301
D12F	0.0616
G9V	0.361

Study 2 — technique: aptamer microarray, sandwich; molecule type: DNA with 2'F-ANA; sample: in vitro; tested at: 200 nM; added: Cy3 exosite-II aptamer, 400 nM; direction: higher = stronger binding; strand: GGTTGGTGTGGTTGG
Target: Prothrombin, mature alpha-thrombin (F2, Homo sapiens, UniProt P00734)
Notes: whole 15-mer aptamer, many near background
Modification	mean fluorescence intensity [a.u.]
2'F-ANA at 3 5 6 7 8 9 10 11 12	63.2
2'F-ANA at 2 3 4 6 9 11 12 15	589
2'F-ANA at 1 6 7 8 9 10 11 12 14	53.3
2'F-ANA at 3 4 6 8 10 11 12	327
2'F-ANA at 2 4 6 8 10 11 12 13 15	80.9
2'F-ANA at 1 2 4 5 7 8 10 11 12 15	52

Study 3 — technique: protein-binding microarray; molecule type: double-stranded DNA, one strand shown; sample: in vitro; tested at: 250 nM; notes: 60-bp whole probe; added: salmon DNA 0.4 mg/ml; relative to: random background probes; direction: higher = stronger binding; shared flanks, not repeated: GCCTAGCAC … GTCTTGATTCGCTTGACGCTGCTG
Target: Interferon regulatory factor 5, full length, phosphomimetic (IRF5, Homo sapiens, UniProt Q13568-2, residues 1-514, K96S/S451D/S453D/S456D/S462D)
Strand	log fluorescence
GACGGTATCGGACCGGGGACGTGCTAG	0.437 z-score
TCATGTTTTCATTTTATACTGTGCTAG	2.5 z-score
GTAGGACTGCTACTGCTTTAGTGCTAG	-0.707 z-score
CTATGAAGTCATGTCTTCAGGTGCTAG	-0.169 z-score
ATGAGCTTCAAACCATAACCGTGCTAG	0.0365 z-score
ATCTTCATGAAGTTTTAATAAGTGCTA	0.766 z-score

Further values, each from its own experiment
Substance	target	test	system	setting	scale	measurement	value
PhoQ, residues 284 288 289 292 302 303 AGCYAI	PhoP, residues 12 14 15 18 19 AGCRL (Escherichia coli, UniProt P23836)	Sort-seq, measured: YFP reporter	E. coli	PhoQ-PhoP variant library, added: 10 µM Mg2+	relative to: high Mg2+ state, higher = stronger signaling	fold induction	9.7

For quick reference, copied from above (study 3):
Strand	log fluorescence
ATCTTCATGAAGTTTTAATAAGTGCTA	0.766 z-score
